Earlier results that unrelated publications cite.
Compare with care: the assays were run in different laboratories. ± gives the spread as reported.
Sequence of UniProt O35627 (whole entry, unmodified, looked up): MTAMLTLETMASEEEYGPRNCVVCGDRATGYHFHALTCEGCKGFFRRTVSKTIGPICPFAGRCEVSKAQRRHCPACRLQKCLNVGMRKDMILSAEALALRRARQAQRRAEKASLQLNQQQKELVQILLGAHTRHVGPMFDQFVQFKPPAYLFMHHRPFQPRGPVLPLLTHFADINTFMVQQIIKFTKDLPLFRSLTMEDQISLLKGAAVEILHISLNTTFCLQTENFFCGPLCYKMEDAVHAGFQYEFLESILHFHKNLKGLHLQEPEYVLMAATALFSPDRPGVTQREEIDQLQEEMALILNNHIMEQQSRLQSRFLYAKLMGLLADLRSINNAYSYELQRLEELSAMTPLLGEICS

CC[C@H](C)[C@H](NC(=O)[C@H](CCCCN)NC(=O)[C@H](CCCCN)NC(=O)[C@H](Cc1ccccc1)NC(=O)[C@H](CC(C)C)NC(=O)[C@@H](CCCCN)NC(=O)[C@@H](N)CCCCN)C(=O)N[C@@H](CC(C)C)C(=O)N[C@@H](CCCCN)C(=O)N[C@@H](Cc1ccc(O)cc1)C(=O)N[C@@H](CC(C)C)C(N)=O  hemolysis (horse erythrocytes 5 % v/v; 150 µM): 27 ± 0.7%
O=c1c2nc(Br)n([C@@H]3O[C@@H]4COP(=O)(O)O[C@H]4[C@H]3O)c2nc2[nH]c(-c3ccccc3)cn12  Km or Ki (PDE6; cyclic nucleotide hydrolysis, substrate or inhibitor, isothermal titration calorimetry): 11.2 µM
CC(=O)c1cccc(N[C@H]2[C@H](N)[C@@](NC(=O)N(C)C)([C@H](C)O)[C@@](C)(O)[C@@]2(O)COC(=O)c2c(C)cccc2O)c1  GI50 (OVCAR-3 (ovarian cancer); cell growth; NCI screen data): < 0.1 µM
O=C1c2ccccc2-c2c1c1ccc([N+](=O)[O-])cc1c(=O)n2CCCn1ccnc1  GI50 (CNS SF-539; cell growth): 0.016 µM
CN(C)C/C=C/C(=O)Nc1cc2c(Nc3ccc(F)c(Cl)c3)ncnc2cc1O[C@H]1CCOC1  beating cessation concentration (hiPSC-derived cardiomyocytes; 72 h, tested 0 to 100 µM): 3.7 µM
Cc1ccc(OCC(=O)N(Cc2cccs2)c2ccn[nH]2)cc1  Ames test result (Salmonella typhimurium; abbreviated Ames test; TA98 and TA100; up to 5000 µg/plate, with and without S9): negative
C[C@@H](c1nc(-c2ccc(C#N)cc2)cs1)[C@](O)(Cn1cncn1)c1cc(F)ccc1F  IC50 (CYP1A2; enzyme activity, inhibitor; with: phenacetin O-deethylation): 38.5 µM
O=C(O)CNC(=O)c1ccccc1[131I]  percent injected dose (normal rat, heart; 60 min, with: co-injected 99mTc-1): 0 %ID
Cc1ccc(Nc2nccc(N(C)c3ccc4c(C)n(C)nc4c3)n2)cc1S(N)(=O)=O  lowest effective concentration (hiPSC-derived cardiomyocytes; contractility; 72 h): 73.9 µM
CC12CCC3c4ccc(O)cc4CCC3C1CCC2O (stereo not drawn)  EC50 (HT-22; cell protection; with: glutamate 10 mM): 10.2 µM
CS(=O)(=O)CCNCc1ccc(-c2ccc3ncnc(Nc4ccc(OCc5cccc(F)c5)c(Cl)c4)c3c2)o1  lowest effective concentration (hiPSC-derived cardiomyocytes; contractility; 72 h): 11 µM
O=C1c2ccccc2-c2c1c1ccc([N+](=O)[O-])cc1c(=O)n2C[C@H](O)CO  GI50 (lung HOP-62; cell growth): 0.089 µM
CCCS(=O)(=O)Nc1ccc(F)c(C(=O)c2c[nH]c3ncc(-c4ccc(Cl)cc4)cc23)c1F  lowest effective concentration (hiPSC-derived cardiomyocytes; contractility; 72 h): 11 µM
Cc1ccccc1-c1cc(N2CCN(C)CC2)ncc1N(C)C(=O)C(C)(C)c1cc(C(F)(F)F)cc(C(F)(F)F)c1  Vz/F (patients, plasma; oral, dose not given, netupitant-palonosetron combination, with: docetaxel 75 to 100 mg/m^2 IV): 1860 L
COc1cc2nccc(Oc3ccc(NC(=O)C4(C(=O)Nc5ccc(F)cc5)CC4)cc3)c2cc1OC  lowest effective concentration (hiPSC-derived cardiomyocytes; contractility; 72 h): 91.1 µM
O=C1c2cccc3c2[C@H](CCC3)CN1[C@@H]1CN2CCC1CC2  Vz/F (patients, plasma; oral, dose not given, netupitant-palonosetron combination, with: docetaxel 75 to 100 mg/m^2 IV): 633 L
O=C(Nc1ncnc2c1ncn2[C@@H]1O[C@@H]2COP(=O)(O)OC2C1O)c1ccccc1 (stereo in doubt)  Km or Ki (PDE6; cyclic nucleotide hydrolysis, substrate or inhibitor, isothermal titration calorimetry): 64.6 µM
CC(C)(c1ccc(O)cc1)c1ccc(O)cc1  feminizing concentration (Xenopus laevis; item: female phenotype frequency; tadpoles; lowest effective): 23 µg/L
CC[C@H](C)[C@H](NC(=O)[C@H](CCCCN)NC(=O)[C@H](Cc1c[nH]cn1)NC(=O)[C@@H](N)CCCNC(=N)N)C(=O)N[C@@H](CC(C)C)C(=O)N[C@@H](Cc1c[nH]cn1)C(=O)N[C@@H](CCCNC(=N)N)C(=O)N[C@@H](CC(C)C)C(=O)N[C@@H](CC(C)C)C(=O)N[C@@H](CCC(N)=O)C(=O)N[C@@H](CCC(=O)O)C(=O)NCC(=O)N[C@@H](CO)C(=O)O  −TΔS (Nuclear receptor subfamily 1 group I member 3, with RXR (Mus musculus, UniProt O35627); binding, isothermal titration calorimetry; pH 7.2, 25°C): 2.8 kcal/mol
O=C1c2ccccc2-c2c1c1ccc([N+](=O)[O-])cc1c(=O)n2CCCN1CCOCC1  GI50 (lung HOP-62; cell growth): 0.021 µM
CC[C@H](C)CCCCC(=O)N[C@@H](CCN)C(=O)N[C@H](C(=O)N[C@@H](CCN)C(=O)N[C@H]1CCNC(=O)[C@H]([C@@H](C)O)NC(=O)[C@H](CCN)NC(=O)[C@H](CCN)NC(=O)[C@H](CC(C)C)NC(=O)[C@@H](Cc2ccccc2)NC(=O)[C@H](CCN)NC1=O)[C@@H](C)O  peripheral volume of distribution (human patients with renal insufficiency; intravenous, dose not given, population PK model): 10.6 L

For quick reference, copied from above:
Cc1ccc(OCC(=O)N(Cc2cccs2)c2ccn[nH]2)cc1  Ames test result (Salmonella typhimurium; abbreviated Ames test; TA98 and TA100; up to 5000 µg/plate, with and without S9): negative
CC[C@H](C)[C@H](NC(=O)[C@H](CCCCN)NC(=O)[C@H](CCCCN)NC(=O)[C@H](Cc1ccccc1)NC(=O)[C@H](CC(C)C)NC(=O)[C@@H](CCCCN)NC(=O)[C@@H](N)CCCCN)C(=O)N[C@@H](CC(C)C)C(=O)N[C@@H](CCCCN)C(=O)N[C@@H](Cc1ccc(O)cc1)C(=O)N[C@@H](CC(C)C)C(N)=O  hemolysis (horse erythrocytes 5 % v/v; 150 µM): 27 ± 0.7%
CC[C@H](C)[C@H](NC(=O)[C@H](CCCCN)NC(=O)[C@H](Cc1c[nH]cn1)NC(=O)[C@@H](N)CCCNC(=N)N)C(=O)N[C@@H](CC(C)C)C(=O)N[C@@H](Cc1c[nH]cn1)C(=O)N[C@@H](CCCNC(=N)N)C(=O)N[C@@H](CC(C)C)C(=O)N[C@@H](CC(C)C)C(=O)N[C@@H](CCC(N)=O)C(=O)N[C@@H](CCC(=O)O)C(=O)NCC(=O)N[C@@H](CO)C(=O)O  −TΔS (Nuclear receptor subfamily 1 group I member 3, with RXR (Mus musculus, UniProt O35627); binding, isothermal titration calorimetry; pH 7.2, 25°C): 2.8 kcal/mol
